Measured values gathered from unrelated publications.
Each line is one published result; not all experiments were run side by side. “And” joins repeats or separate records; there may be more than shown.
Target: Muscle, skeletal receptor tyrosine-protein kinase (MUSK, Homo sapiens, UniProt O15146)

SMILES | assay | conditions | how to read | measurement | value
Nc1ncc2c(n1)-c1c([nH]c3ccc(C4=CCOCC4)cc13)CCC2 | binding, competition with immobilised ligand | 1 µM |  | remaining binding | 100%
CN1CC[C@@H](COc2cnc(C#N)cc2-c2ccn3nc(NC(=O)C4CC4)cc3c2)C1 | enzyme activity, inhibitor | 1 µM |  | inhibition | 3%
Cc1cnc2nc1Nc1cccc(c1)COC/C=C/COCc1cc(ccc1OCCN1CCOCC1)N2 | binding | 0.1 µM |  | remaining binding | 94%
C=CC(=O)Nc1cccc(-c2cnc3[nH]cc(C(=O)NC(C)(C)C)c3n2)c1 | kinase activity | 0.1 µM |  | inhibition | 12% and 5%
NC(=O)[C@@H](O)C[C@H]1CCc2sc3ncnc(O[C@H]4CC[C@H](N5CCOCC5)CC4)c3c21 | enzyme activity, inhibitor | 10 µM |  | inhibition | 42%
CNC(=O)C1CCN(c2cc(C)c(F)cc2NC(=O)c2ccc(-c3cc(O)ccc3C)c(C)c2)CC1 | binding, competition with immobilised ligand | 1 µM |  | remaining binding | 84%
COc1c(Cl)cccc1Nc1c(-c2ccncc2C#C[C@@]2(C)CCCN2C(=O)/C=C/CN(C)C)[nH]c2c1C(=O)NCC2 | binding, competition with immobilised ligand | 3 µM |  | remaining binding | 88%
Cc1ccc(-c2c(/C=C(\C#N)C(=O)NC(C)C)n(CCCO)c3ncnc(N)c23)cc1 | cell-free assay, competition with immobilised ligand | 1 µM |  | remaining binding | 100%
COCC12C(=O)NC3C4(C(OC)CC1O)C1CC5(O)C(OC)C(O)C(OC(C)=O)(C1C5OC(=O)c1ccccc1)C3(O)C(OC)C24 (stereo not drawn) | kinase activity, inhibitor, ProQinase kinase profiling | 25 µM | relative to: control | remaining activity | 97%
O=C=[N][Ru-4]123([n]4c5ccc(O)cc5c5c6c(c7cc(F)c[n+]1c7c54)C(=O)NC6=O)[S+]1CC[S+]2CC[S+]3CC1 (stereo not drawn) | enzyme activity | 100 nM, human enzyme, together with: 10 µM ATP | relative to: untreated | remaining activity | 108%
COc1c(OCCCN2CCOCC2)ccc2c1N=C(NC(=O)c1cnc(N)nc1)N1CCN=C21 | kinase activity, inhibitor | 1 µM | relative to: untreated control | remaining activity | 94%
CC(C)=CC1OC(C)(C)C2C=C3C(=O)C(Cl)=CC(O)C3C3C(O)C4OC4C(=O)C132 (stereo not drawn) | cell-free assay, competition with immobilised ligand | 10 µM |  | remaining binding | 99%
COc1cc(Nc2nc(C)cc(-c3cnn4nc(OC)ccc34)n2)cc(C(F)(F)F)c1 | inhibitor | 1 µM | relative to: control | remaining activity | 100%
Cc1cccc(O[C@H]2CCC[C@@H](C(C)CNCc3ccncc3)C2)c1 (relative stereo) | enzyme activity, inhibitor | 1 µM |  | inhibition | 5%
CCN1CCN(Cc2ccc(C(=O)Nc3ccc(C)c(NCc4cnc5[nH]ccc5c4OC)c3)cc2C(F)(F)F)CC1 | binding, competition with immobilised ligand | 1 µM |  | remaining binding | 3.9%

A few entries again:
SMILES | assay | conditions | how to read | measurement | value
NC(=O)[C@@H](O)C[C@H]1CCc2sc3ncnc(O[C@H]4CC[C@H](N5CCOCC5)CC4)c3c21 | enzyme activity, inhibitor | 10 µM |  | inhibition | 42%
CNC(=O)C1CCN(c2cc(C)c(F)cc2NC(=O)c2ccc(-c3cc(O)ccc3C)c(C)c2)CC1 | binding, competition with immobilised ligand | 1 µM |  | remaining binding | 84%
